Experimental data gathered from unrelated publications.
Compare with care: the assays were run in different laboratories. ± gives the spread as reported.
TDP1: Tyrosyl-DNA phosphodiesterase 1 (TDP1, Homo sapiens, UniProt Q9NUW8)
Sequence of UniProt Q9NUW8 (whole entry, looked up): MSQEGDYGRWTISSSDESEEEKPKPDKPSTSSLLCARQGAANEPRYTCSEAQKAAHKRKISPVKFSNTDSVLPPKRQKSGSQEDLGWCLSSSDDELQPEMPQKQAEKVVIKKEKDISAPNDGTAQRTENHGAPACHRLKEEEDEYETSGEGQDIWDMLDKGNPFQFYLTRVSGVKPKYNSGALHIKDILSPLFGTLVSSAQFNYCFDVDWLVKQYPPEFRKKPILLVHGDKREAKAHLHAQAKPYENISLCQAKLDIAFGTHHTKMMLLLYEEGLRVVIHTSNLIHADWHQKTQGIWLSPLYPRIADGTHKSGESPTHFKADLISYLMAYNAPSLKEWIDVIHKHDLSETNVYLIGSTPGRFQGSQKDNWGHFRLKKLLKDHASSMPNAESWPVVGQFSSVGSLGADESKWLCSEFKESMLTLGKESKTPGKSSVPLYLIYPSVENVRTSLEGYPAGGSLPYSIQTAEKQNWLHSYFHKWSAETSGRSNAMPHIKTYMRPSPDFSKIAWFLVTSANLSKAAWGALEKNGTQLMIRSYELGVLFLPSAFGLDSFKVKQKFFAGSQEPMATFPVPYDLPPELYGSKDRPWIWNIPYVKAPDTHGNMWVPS
ppa: Inorganic pyrophosphatase (ppa, Escherichia coli, UniProt P0A7A9)
Sequence of UniProt P0A7A9 (whole entry, looked up): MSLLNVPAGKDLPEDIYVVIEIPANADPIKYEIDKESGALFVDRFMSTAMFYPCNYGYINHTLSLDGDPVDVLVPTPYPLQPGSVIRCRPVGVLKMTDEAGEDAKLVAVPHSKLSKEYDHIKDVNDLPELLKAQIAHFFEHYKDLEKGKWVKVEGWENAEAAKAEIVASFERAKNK
Sequence of UniProt P22310 (whole entry, looked up): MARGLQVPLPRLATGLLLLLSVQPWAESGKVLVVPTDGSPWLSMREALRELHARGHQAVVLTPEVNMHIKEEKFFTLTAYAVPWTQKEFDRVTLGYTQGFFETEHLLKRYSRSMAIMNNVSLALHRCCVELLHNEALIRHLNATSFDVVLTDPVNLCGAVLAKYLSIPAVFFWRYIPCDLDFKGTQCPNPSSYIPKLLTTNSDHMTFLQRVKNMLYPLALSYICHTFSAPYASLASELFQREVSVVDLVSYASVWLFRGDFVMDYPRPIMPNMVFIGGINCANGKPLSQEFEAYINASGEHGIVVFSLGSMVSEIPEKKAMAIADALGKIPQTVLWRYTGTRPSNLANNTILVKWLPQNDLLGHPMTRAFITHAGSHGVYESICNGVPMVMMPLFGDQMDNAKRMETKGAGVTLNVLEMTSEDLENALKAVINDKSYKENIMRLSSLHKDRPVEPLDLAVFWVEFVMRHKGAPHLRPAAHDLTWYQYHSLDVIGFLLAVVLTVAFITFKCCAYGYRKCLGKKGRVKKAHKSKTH
Sequence of UniProt Q9BZL6 (whole entry, looked up): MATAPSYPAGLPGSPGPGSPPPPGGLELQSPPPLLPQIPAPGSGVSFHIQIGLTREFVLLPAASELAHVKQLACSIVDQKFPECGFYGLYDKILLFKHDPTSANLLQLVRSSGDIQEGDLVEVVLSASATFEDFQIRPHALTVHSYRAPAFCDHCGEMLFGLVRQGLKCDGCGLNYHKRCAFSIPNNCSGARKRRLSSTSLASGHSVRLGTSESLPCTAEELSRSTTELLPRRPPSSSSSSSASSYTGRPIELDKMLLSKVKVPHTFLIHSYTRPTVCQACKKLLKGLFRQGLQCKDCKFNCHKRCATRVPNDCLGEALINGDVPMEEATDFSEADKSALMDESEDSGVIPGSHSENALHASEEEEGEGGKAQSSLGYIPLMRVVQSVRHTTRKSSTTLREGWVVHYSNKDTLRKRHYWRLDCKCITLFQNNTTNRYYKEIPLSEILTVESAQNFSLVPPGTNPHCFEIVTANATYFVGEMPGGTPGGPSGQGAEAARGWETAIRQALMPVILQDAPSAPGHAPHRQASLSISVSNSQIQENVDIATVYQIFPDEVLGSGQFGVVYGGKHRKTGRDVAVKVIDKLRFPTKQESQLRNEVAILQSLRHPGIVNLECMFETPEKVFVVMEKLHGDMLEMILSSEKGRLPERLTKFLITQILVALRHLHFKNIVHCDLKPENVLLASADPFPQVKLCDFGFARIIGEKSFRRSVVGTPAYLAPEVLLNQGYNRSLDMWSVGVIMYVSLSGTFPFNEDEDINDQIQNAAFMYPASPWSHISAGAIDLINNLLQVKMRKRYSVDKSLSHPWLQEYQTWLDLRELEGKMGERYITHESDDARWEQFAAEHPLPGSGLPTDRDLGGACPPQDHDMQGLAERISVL
Sequence of UniProt Q15391 (whole entry, unmodified, looked up): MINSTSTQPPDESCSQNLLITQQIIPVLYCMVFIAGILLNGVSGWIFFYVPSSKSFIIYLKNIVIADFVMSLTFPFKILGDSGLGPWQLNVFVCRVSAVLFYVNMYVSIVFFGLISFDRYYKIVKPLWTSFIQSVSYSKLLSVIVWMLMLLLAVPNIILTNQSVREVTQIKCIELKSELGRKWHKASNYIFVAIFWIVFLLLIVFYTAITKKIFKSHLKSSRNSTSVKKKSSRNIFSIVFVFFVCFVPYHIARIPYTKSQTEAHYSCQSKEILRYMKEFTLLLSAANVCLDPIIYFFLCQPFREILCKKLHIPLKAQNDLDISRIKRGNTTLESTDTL
Sequence of UniProt P41146 (whole entry, unmodified, looked up): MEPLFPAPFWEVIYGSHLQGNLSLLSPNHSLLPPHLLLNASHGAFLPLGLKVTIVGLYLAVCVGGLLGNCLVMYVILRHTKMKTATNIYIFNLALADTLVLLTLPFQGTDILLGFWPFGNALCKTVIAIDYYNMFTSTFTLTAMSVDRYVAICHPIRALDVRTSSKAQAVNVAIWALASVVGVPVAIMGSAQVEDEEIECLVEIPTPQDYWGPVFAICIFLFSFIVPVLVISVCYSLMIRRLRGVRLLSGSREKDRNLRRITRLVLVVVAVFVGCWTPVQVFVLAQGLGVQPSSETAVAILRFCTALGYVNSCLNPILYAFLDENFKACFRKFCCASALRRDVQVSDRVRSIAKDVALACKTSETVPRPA
Sequence of UniProt Q9UKP6 (whole entry, looked up): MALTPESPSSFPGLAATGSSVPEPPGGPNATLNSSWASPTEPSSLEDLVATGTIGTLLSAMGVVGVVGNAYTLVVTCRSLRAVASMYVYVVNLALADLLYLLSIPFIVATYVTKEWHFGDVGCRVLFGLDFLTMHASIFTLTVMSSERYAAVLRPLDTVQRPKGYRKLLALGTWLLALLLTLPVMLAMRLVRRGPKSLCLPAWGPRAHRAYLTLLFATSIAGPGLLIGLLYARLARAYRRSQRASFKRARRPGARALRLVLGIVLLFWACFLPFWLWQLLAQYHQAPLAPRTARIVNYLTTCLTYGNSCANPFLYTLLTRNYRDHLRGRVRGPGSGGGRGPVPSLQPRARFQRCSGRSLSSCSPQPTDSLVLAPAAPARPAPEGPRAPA
Sequence of UniProt O09047 (whole entry, looked up): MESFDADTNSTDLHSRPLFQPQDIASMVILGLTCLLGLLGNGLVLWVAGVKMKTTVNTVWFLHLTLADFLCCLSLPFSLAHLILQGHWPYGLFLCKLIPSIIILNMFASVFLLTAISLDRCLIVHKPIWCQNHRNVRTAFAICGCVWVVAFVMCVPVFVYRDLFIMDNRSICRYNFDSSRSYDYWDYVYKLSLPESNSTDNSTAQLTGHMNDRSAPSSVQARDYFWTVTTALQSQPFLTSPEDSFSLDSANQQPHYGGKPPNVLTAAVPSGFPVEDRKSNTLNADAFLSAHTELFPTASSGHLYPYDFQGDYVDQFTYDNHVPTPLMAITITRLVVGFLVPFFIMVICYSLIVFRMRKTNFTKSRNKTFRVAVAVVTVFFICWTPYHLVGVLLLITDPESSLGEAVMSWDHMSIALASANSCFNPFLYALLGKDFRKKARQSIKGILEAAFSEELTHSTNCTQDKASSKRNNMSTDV

| SMILES | target | test | system | setting | quantity | value |
| --- | --- | --- | --- | --- | --- | --- |
| O=C(O)c1ccc(Nc2c(-c3ccc(CON=Cc4ccc(OC5=NS(=O)(=O)c6ccccc65)cc4)cc3)nc3cc(-c4ccccc4)ccn23)cc1 | TDP1 | enzyme activity, inhibitor |  | 100 µM, unpurified compound | inhibition | 80.8% |
| CCc1nc2cc3ccccc3cc2cc1C(=O)N1CCC[C@H]1C(=O)N[C@@H](C/C=C/C[C@H](NC(=O)[C@@H]1CCCN1C(=O)c1cc2cc3ccccc3cc2nc1CC)C(=O)N[C@@H](CCCCN)C(=O)NCCCN)C(=O)N[C@@H](CCCCN)C(=O)NCCCN | HIV-1 frameshift site RNA | SPR |  |  | Kd | 723 nM |
| Cc1ccc2c(c1)C(O)(CC(=O)c1ccc3c(c1)OCCO3)C(=O)N2 (stereo not drawn) | ppa | enzyme activity, inhibitor |  |  | IC50 | > 100000 nM |
| CC(=O)OC1CCC2(C)C(CCC3(C)C2CC=C2C4C(C)C(C)CCC4(C(=O)O)CCC23C)C1(C)C (stereo not drawn) | UGT1A4 (Homo sapiens, UniProt P22310) | enzyme activity, inhibitor | human, liver microsomes |  | Ki | 638 nM |
| COc1ccc(C2=Nn3c(nnc3C3CCCCC3)SC2)cc1 | Uncharacterized protein (Trypanosoma brucei brucei, UniProt Q386Q8) | inhibitor, coupled colorimetric | Trypanosoma brucei |  | IC50 | 318000 nM |
| O=c1ccn([C@@H]2O[C@H](COP(=O)(O)CP(=O)(O)O)[C@@H](O)[C@H]2O)c(=S)[nH]1 | P2Y purinoceptor 14 (P2RY14, Homo sapiens, UniProt Q15391, V99A) | calcium mobilisation, agonist | cells with Gαqi5 | receptor mutant V99A | EC50 | 241 nM |
| O=C(NCCCN1CCC2(CC1)OCc1ccccc12)C1CCCN1Cc1ccccc1 (stereo not drawn) | Nociceptin receptor (OPRL1, Homo sapiens, UniProt P41146, I219A) |  |  |  | Ki | 0.3 nM |
| CC(C)[C@H](NC(=O)[C@@H]1CSSC(C)(C)[C@H](NC(=O)[C@@H](N)CC(=O)O)C(=O)N[C@@H](Cc2ccccc2)C(=O)N[C@H](Cc2c[nH]c3ccccc23)C(=O)N[C@@H](CCCN)C(=O)N[C@@H](Cc2ccc(O)cc2)C(=O)N1)C(=O)O | UTS2R (Homo sapiens, UniProt Q9UKP6) | Gq activation, agonist, BRET2 | HEK293 | 10 min | EC50 | 6.3 ± 1.7 nM |
| Cc1ccc(S(=O)(=O)n2cccc2C=NOCc2ccc(-c3nc4cc(-c5ccccc5)ccn4c3Nc3ccc(C(=O)O)cc3)cc2)cc1 | TDP1 | enzyme activity, inhibitor |  | 100 µM, unpurified compound | inhibition | 24% |
| COc1ccc(NC(=O)Nc2cc(C(C)(C)C)on2)cc1OC | ppa | inhibitor, counter-screen, coupling enzyme alone |  |  | IC50 | > 30000 nM |
| CC(C)C[C@H](NC(=O)[C@@H](N)[C@@H](C)O)C(=O)N[C@@H](CCC(N)=O)C(=O)N1CCC[C@H]1C(=O)N1CCC[C@H]1C(=O)N[C@@H](C)C(=O)N[C@@H](CO)C(=O)N[C@@H](CO)C(=O)N[C@@H](CCCNC(=N)N)C(=O)N[C@@H](CCCNC(=N)N)C(=O)N[C@@H](CCCNC(=N)N)C(=O)N[C@@H](Cc1c[nH]cn1)C(=O)N[C@@H](Cc1ccccc1)C(=O)N[C@@H](Cc1c[nH]cn1)C(=O)N[C@@H](Cc1c[nH]cn1)C(=O)N[C@@H](C)C(=O)N[C@@H](CC(C)C)C(=O)N1CCC[C@H]1C(=O)N1CCC[C@H]1C(=O)N[C@@H](C)C(=O)N[C@@H](CCCNC(=N)N)C(=O)O | C3a anaphylatoxin chemotactic receptor (C3ar1, Mus musculus, UniProt O09047) | beta-arrestin 1 recruitment, agonist, NanoBiT | mouse |  | EC50 | 105 nM |
| Cc1nn(-c2cccc(N)c2)c(=O)c2cnc(Nc3ccc(N4CCNCC4)cc3)nc12 | PRKD2 (Homo sapiens, UniProt Q9BZL6) | enzyme activity, inhibitor |  |  | IC50 | 1750 nM |

Excerpt of the above:
| SMILES | target | test | system | setting | quantity | value |
| --- | --- | --- | --- | --- | --- | --- |
| CC(=O)OC1CCC2(C)C(CCC3(C)C2CC=C2C4C(C)C(C)CCC4(C(=O)O)CCC23C)C1(C)C (stereo not drawn) | UGT1A4 (Homo sapiens, UniProt P22310) | enzyme activity, inhibitor | human, liver microsomes |  | Ki | 638 nM |
